# Measured values of several laboratories.
# Numbered parts are unrelated; each lists some results of a single study.

# Set 1
# Target: Prothrombin, mature alpha-thrombin (F2, Homo sapiens, UniProt P00734)
# Technique: aptamer microarray, sandwich
# Form: DNA with 2'F-ANA
# Sample: in vitro
# Tested at: 200 nM
# Setting: whole 15-mer aptamer, many near background
# Added: Cy3 exosite-II aptamer, 400 nM
# Direction: higher = stronger binding
# Oligonucleotide: GGTTGGTGTGGTTGG
Modification,mean fluorescence intensity [a.u.]
2'F-ANA at 3 5 6 8 10 12 13 15,52.6
2'F-ANA at 4 5 6 8 13,53.1
2'F-ANA at 1 2 3 4 5 6 7 8 11,58.1
2'F-ANA at 1 2 4 6 7 9 13 14,51.4
2'F-ANA at 1 3 4 5 10 11 13 15,47
2'F-ANA at 1 2 3 7 9 12 13,313
2'F-ANA at 3 5 6 13 14,94.5

# Set 2
# Target: Histone acetyltransferase KAT6A, winged helix 2, GST fusion (KAT6A, Homo sapiens, UniProt Q92794, residues 85-181)
# Technique: protein binding microarray
# Form: double-stranded DNA, one strand shown
# Sample: in vitro
# Tested at: not given
# Setting: 8-mer, flanks averaged, mean of 2 arrays, mostly near background
# Reference: not given
# Direction: higher = stronger binding
# Construct (chain): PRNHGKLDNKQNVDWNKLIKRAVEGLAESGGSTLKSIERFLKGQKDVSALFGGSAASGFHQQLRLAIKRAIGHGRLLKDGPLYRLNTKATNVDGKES
Oligonucleotide,E-score
AATAAATT,0.0628
CAGATAGG,-0.0975
GATTACGA,-0.00712
CGATGTGC,0.091
CGTTGATC,0.0583

# Set 3
# Target: Sal-like protein 4, full length isoform B (SALL4, Homo sapiens, UniProt Q9UJQ4-2, residues 1-616)
# Technique: universal PBM
# Form: double-stranded DNA, one strand shown
# Sample: in vitro
# Tested at: not given
# Setting: 8-mer, flanks averaged, mean of replicates
# Direction: higher = stronger binding
# Construct (chain): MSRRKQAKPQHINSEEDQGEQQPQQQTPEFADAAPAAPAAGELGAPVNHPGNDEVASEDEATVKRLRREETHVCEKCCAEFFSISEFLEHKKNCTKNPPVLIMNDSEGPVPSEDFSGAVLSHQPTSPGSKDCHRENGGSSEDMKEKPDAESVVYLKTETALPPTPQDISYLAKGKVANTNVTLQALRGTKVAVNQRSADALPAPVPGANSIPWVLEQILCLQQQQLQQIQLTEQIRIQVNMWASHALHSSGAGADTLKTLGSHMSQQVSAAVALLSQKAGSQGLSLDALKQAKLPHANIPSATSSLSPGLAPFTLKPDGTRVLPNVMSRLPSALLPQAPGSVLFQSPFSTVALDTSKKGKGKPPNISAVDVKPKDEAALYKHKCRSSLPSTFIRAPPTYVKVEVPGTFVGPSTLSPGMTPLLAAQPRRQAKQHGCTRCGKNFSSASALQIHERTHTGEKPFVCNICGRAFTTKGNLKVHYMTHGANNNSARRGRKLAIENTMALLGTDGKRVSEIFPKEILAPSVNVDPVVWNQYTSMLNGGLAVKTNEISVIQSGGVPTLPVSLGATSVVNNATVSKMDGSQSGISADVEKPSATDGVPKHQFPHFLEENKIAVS
Oligonucleotide,E-score
ACCATCCA,-0.0622
TATGGAAA,0.325
GACGTTTA,0.144
CAGCGCGG,-0.366
ACACGGAG,-0.043
CACTGCCG,-0.308

# Single results of other studies
Substance,target,assay,test system,conditions,how to read,endpoint,value
"PhoQ, residues 284 288 289 292 302 303 TNASYF","PhoP, residues 12 14 15 18 19 VQGLL (Escherichia coli, UniProt P23836)","Sort-seq, refers to: YFP reporter",E. coli,"PhoQ-PhoP variant library, added: 10 µM Mg2+","reference: high Mg2+ state, higher = stronger signaling",fold induction,7.39

# For quick reference, copied from above (set 1):
Modification,mean fluorescence intensity [a.u.]
2'F-ANA at 4 5 6 8 13,53.1
